# Published values collected from several papers.
# A part holds a random share of what one study measured. Values joined by “and” are separate records of one study, mostly repeats; a detail may differ.

# Study 1
# SMILES: CC(C)(C(=O)O)[C@H](NC(=O)Cc1cccc(I)c1)c1ccc2oc(=O)[nH]c2c1
# Method: Incucyte 3D growth
# Concentration: 30 µM
# Direction: higher = more growth
cell line,time,spheroid area
NCI-H358,78 h,4.21e+06 a.u. and 3.79e+06 a.u. and 3.53e+06 a.u.
A375,522.52 h,1.5e+08 a.u. and 1.42e+08 a.u. and 1.74e+08 a.u. and 1.47e+08 a.u. and 1.35e+08 a.u. and 1.43e+08 a.u.
NCI-H1437,54 h,2.08e+07 a.u. and 2.29e+07 a.u. and 2.65e+07 a.u. and 2.78e+07 a.u. and 2.04e+07 a.u.
MEL-JUSO,252.52 h,2.41e+07 a.u. and 3.07e+07 a.u. and 1.81e+07 a.u. and 1.8e+07 a.u. and 1.91e+07 a.u. and 1.69e+07 a.u.
A375,36.52 h,1.38e+07 a.u. and 1.76e+07 a.u. and 1.91e+07 a.u. and 2.27e+07 a.u. and 1.88e+07 a.u. and 1.36e+07 a.u.

# Study 2
# Target: Calcium/calmodulin-dependent protein kinase type II subunit alpha (CAMK2A, Homo sapiens, UniProt Q9UQM7)
# Observed: enzyme activity
# Action: inhibitor
# Concentration: 10 µM
Compound,inhibition [%]
CC(=O)CCC(=O)O,-9
COc1cc(-c2oc3cc(O)cc(O)c3c(=O)c2O)ccc1O,66
C[C@]12CC[C@@H]3c4ccc(O)cc4C[C@@H](CCCCCCCCC[S+]([O-])CCCC(F)(F)C(F)(F)F)[C@H]3[C@@H]1CC[C@@H]2O (stereo partly shown),1
OC[C@H]1O[C@@](CO)(OC[C@@]2(OC[C@@]3(OC[C@@]4(OC[C@@]5(O[C@H]6O[C@H](CO)[C@@H](O)[C@H](O)[C@H]6O)O[C@H](CO)[C@@H](O)[C@@H]5O)O[C@H](CO)[C@@H](O)[C@@H]4O)O[C@H](CO)[C@@H](O)[C@@H]3O)O[C@H](CO)[C@@H](O)[C@@H]2O)[C@@H](O)[C@@H]1O,20
C=C1CC[C@]2(C)CC[C@]3(C)[C@H](CC[C@@H]4[C@@]5(C)CC[C@H](O)C(C)(C)[C@@H]5CC[C@]43C)[C@H]2[C@@H]1C,33
CCCCCCC[C@H](O)CC(=O)CCc1ccc(O)c(OC)c1,-10
O=C1C=C2C=C[C@@H](O)[C@H](O)[C@H]2O1,-20
N#Cc1ccc2[nH]cc(CCCCN3CCN(c4ccc5oc(C(=O)O)cc5c4)CC3)c2c1,2

# Study 3
# Compound: CN(C)C(=O)Cn1cc(-c2nc([C@@](C)(c3ccc(-c4cnc(N)nc4)cc3)C3CC3)no2)cn1
# Observed: cell-free assay
# Method: competition with immobilised ligand
# Concentration: 1 µM
target,remaining binding
"MET (Homo sapiens, UniProt P08581)",100%
"MYLK (Homo sapiens, UniProt Q15746)",84%
"Tyrosine-protein kinase ABL1, non-phosphorylated (ABL1, Homo sapiens, UniProt P00519, H396P)",80%
"EGFR (Homo sapiens, UniProt P00533, del752-759)",100%
"MAP4K5 (Homo sapiens, UniProt Q9Y4K4)",86%
"CLK1 (Homo sapiens, UniProt P49759)",93%
"CIT (Homo sapiens, UniProt O14578)",84%
"STK38 (Homo sapiens, UniProt Q15208)",80%
"NEK10 (Homo sapiens, UniProt Q6ZWH5)",97%
"KIT (Homo sapiens, UniProt P10721, D816V)",94%
"HIPK1 (Homo sapiens, UniProt Q86Z02)",96%
"DDR1 (Homo sapiens, UniProt Q08345)",90%
"PIKFYVE (Homo sapiens, UniProt Q9Y2I7)",68%
"KIT (Homo sapiens, UniProt P10721, V559D/V654A)",93%
"CLK4 (Homo sapiens, UniProt Q9HAZ1)",99%
"ROCK1 (Homo sapiens, UniProt Q13464)",97%
"ERBB3 (Homo sapiens, UniProt P21860)",95%
"PRKG1 (Homo sapiens, UniProt Q13976)",100%

# Study 4
# Structure (SMILES): O=C(Nc1cnn(-c2csc(C(=O)NC3COC3)c2)c1)Nc1ccccc1Cl
# Observed: enzyme activity
# Concentration: 5 µM
target,action,reference,remaining activity [%]
"HCK (Homo sapiens, UniProt P08631)",,untreated control,89.7
"CAMK1 (Homo sapiens, UniProt Q14012)",,untreated control,85.4
"DDR1 (Homo sapiens, UniProt Q08345)",,untreated control,95.9
"PBK (Homo sapiens, UniProt Q96KB5)",inhibitor,,115
"MAPK13 (Homo sapiens, UniProt O15264)",,untreated control,120
"CSNK1A1L (Homo sapiens, UniProt Q8N752)",inhibitor,,109

# Repeated from above (study 3):
target,remaining binding
"KIT (Homo sapiens, UniProt P10721, V559D/V654A)",93%
"CLK1 (Homo sapiens, UniProt P49759)",93%
"MET (Homo sapiens, UniProt P08581)",100%
"NEK10 (Homo sapiens, UniProt Q6ZWH5)",97%
